{"data": "Measurements of several laboratories", "note": "A part holds a random share of what one study measured."}
{"data": "Sample 1", "target": "Histone acetyltransferase KAT6A, winged helix 2, GST fusion (KAT6A, Homo sapiens, UniProt Q92794, residues 85-181)", "technique": "protein binding microarray", "molecule type": "double-stranded DNA, one strand shown", "matrix": "in vitro", "tested at": "not given", "notes": "8-mer, flanks averaged, mean of 2 arrays, mostly near background", "reference": "not given", "reading": "higher = stronger binding", "Construct (chain)": "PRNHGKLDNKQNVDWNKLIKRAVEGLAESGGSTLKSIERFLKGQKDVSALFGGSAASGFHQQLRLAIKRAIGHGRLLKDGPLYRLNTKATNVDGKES"}
{"Sequence": "ATACTACG", "E-score": -0.039}
{"Sequence": "AAGCTCGC", "E-score": 0.193}
{"Sequence": "AAGTTGTG", "E-score": -0.0259}
{"Sequence": "CCTCCACA", "E-score": 0.08}
{"Sequence": "AAAATGAG", "E-score": 0.0346}
{"Sequence": "AGATGGCG", "E-score": 0.00768}
{"Sequence": "GCTCCATA", "E-score": -0.0435}
{"Sequence": "CGAGTTTA", "E-score": -0.119}
{"Sequence": "GACTGTAA", "E-score": -0.132}
{"Sequence": "ACCTCTCG", "E-score": -0.126}
{"Sequence": "AGTCCAAG", "E-score": -0.0832}
{"Sequence": "GAATTTCA", "E-score": 0.0899}
{"Sequence": "AAAGAGAA", "E-score": 0.0534}
{"Sequence": "ATCGCTAA", "E-score": 0.0351}
{"Sequence": "ACCTGCGC", "E-score": 0.0637}
{"Sequence": "CATCTTAC", "E-score": -0.231}
{"Sequence": "ATAAAATC", "E-score": 0.00958}
{"Sequence": "CGGTAGTC", "E-score": -0.138}
{"Sequence": "CAACGGCG", "E-score": 0.171}
{"Sequence": "GAATACCC", "E-score": 0.0286}
{"Sequence": "ATCCGCAC", "E-score": -0.0452}
{"Sequence": "GATCACAA", "E-score": 0.146}
{"Sequence": "GACCACAC", "E-score": -0.046}
{"Sequence": "CAGACGAG", "E-score": 0.0449}
{"Sequence": "CAGAGACA", "E-score": -0.109}
{"data": "Sample 2", "target": "Interferon regulatory factor 7, full length, phosphomimetic (IRF7, Homo sapiens, UniProt Q92985, residues 1-503, S101K/S471D/S472D/S475D/S476D/S477D/S483D/S484D/S487D)", "technique": "protein-binding microarray", "molecule type": "double-stranded DNA, one strand shown", "matrix": "in vitro", "tested at": "250 nM", "notes": "60-bp whole probe", "together with": "salmon DNA 0.4 mg/ml", "reference": "random background probes", "reading": "higher = stronger binding", "all sequences stand within": "GCCTAGCAC … GTCTTGATTCGCTTGACGCTGCTG", "Target sequence (chain)": "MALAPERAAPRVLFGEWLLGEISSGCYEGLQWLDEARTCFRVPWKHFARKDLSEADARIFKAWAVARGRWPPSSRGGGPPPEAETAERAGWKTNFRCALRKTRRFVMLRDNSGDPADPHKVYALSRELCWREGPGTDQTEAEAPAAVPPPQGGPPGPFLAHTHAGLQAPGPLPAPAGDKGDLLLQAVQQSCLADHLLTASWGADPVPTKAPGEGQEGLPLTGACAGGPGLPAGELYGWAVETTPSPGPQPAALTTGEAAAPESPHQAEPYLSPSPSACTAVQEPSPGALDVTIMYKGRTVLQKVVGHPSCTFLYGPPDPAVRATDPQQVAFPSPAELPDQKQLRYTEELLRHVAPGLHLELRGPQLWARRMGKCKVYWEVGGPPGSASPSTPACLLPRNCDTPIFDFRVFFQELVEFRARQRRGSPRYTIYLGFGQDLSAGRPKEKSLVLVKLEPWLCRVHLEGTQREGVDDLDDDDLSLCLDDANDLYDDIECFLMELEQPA"}
{"Sequence": "TACGATTTCAGTTTCGAGACGTGCTAG", "log fluorescence [z-score]": 4.94}
{"Sequence": "TCATCATTCCAATTCTTACTGTGCTAG", "log fluorescence [z-score]": 0.548}
{"Sequence": "TTAAGACTGGGTTTCGGTTAGTGCTAG", "log fluorescence [z-score]": 6.78}
{"Sequence": "ATGAAGTTCTTTTTTTCAAGGTGCTAG", "log fluorescence [z-score]": 0.044}
{"Sequence": "TCATCTCTGCTCTTTTCAACTGTGCTA", "log fluorescence [z-score]": 0.626}
{"Sequence": "TTAGATTTCGGGACTGGTTTAGTGCTA", "log fluorescence [z-score]": 0.596}
{"Sequence": "ACGAGTTTCCATTTTCTGAAGTGCTAG", "log fluorescence [z-score]": 7.23}
{"Sequence": "TTAGATAACAGTATCGATTAGTGCTAG", "log fluorescence [z-score]": 0.993}
{"Sequence": "TCACTTTTCCCCCTAGTACTGTGCTAG", "log fluorescence [z-score]": 1.77}
{"Sequence": "GACGGTTTCGACATTCGGGACGTGCTA", "log fluorescence [z-score]": 7.27}
{"Sequence": "AAGCTTCTTTTTTATTCTAAAGTGCTA", "log fluorescence [z-score]": 0.708}
{"Sequence": "TTCATTTACATTTCCAATACGTGCTAG", "log fluorescence [z-score]": 1.21}
{"Sequence": "GATTGGCTGACTTTGGAGATGTGCTAG", "log fluorescence [z-score]": 0.000712}
{"data": "Sample 3", "target": "Fragile X messenger ribonucleoprotein 1, C-terminal low-complexity region (Fmr1, Mus musculus, UniProt P35922)", "technique": "RNA Bind-n-Seq", "molecule type": "RNA", "matrix": "in vitro", "tested at": "200 nM", "notes": "whole 134-nt RNA, ends assumed", "together with": "150 mM LiCl", "reference": "input library", "reading": "higher = stronger binding", "each molecule": "7-deaza-guanosine replaces G", "all sequences stand within": "GGGAGUUCUACAGUCCGACGAUC … UGGAAUUCUCGGGUGUCAAGG"}
{"Sequence": "GUCCUGUGCUACACAUCGUAUGUACCGAAUCGGGAAAAAAAGGGAAAAAGGGAAAGGGAAAGUAUUAUGUUACGCCGUUCGGAUCUGCAC", "log2 enrichment": 0.0379}
{"Sequence": "CCUGUGCUACACAUCGUAUGUACCGAAUCGGGAAAAAAGGGAAAAAAGGGGAAAAAAGGGAAAGUAUUAUGUUACGCCGUUCGGAUCUGC", "log2 enrichment": -0.27}
{"Sequence": "CAAGUCCUGUGCUACACAUCGUAUGUACCGAAUCGGUUUGGAAAAAAAGGUUUGGAAAGUAUUAUGUUACGCCGUUCGGAUCUGCACUUC", "log2 enrichment": -3.04}
{"Sequence": "UCAAGUCCUGUGCUACACAUCGUAUGUACCGAAUCGGCCCGGGCCCGGGGCCCGGAAAGUAUUAUGUUACGCCGUUCGGAUCUGCACUUC", "log2 enrichment": -1.7}
{"Sequence": "CCUCAAGUCCUGUGCUACACAUCGUAUGUACCGAAUCGGUUGGGUUGGUUGGGAAAGUAUUAUGUUACGCCGUUCGGAUCUGCACUUCCA", "log2 enrichment": -0.476}
{"Sequence": "UAACUUUAGAGGAGGAUCUGAUGGAUAUGGCAGUGGACGUGGAUUUGGGGAUGGCUAUAAUGGGUAUGGAGGAGGACGUGGAGGUGGCAA", "log2 enrichment": 0.847}
{"Sequence": "CACAGACAACACGCACCCACACAGACACAGAGGGAAGGGGUUGCGAUGGGGACAGGGUGCACAGCAGGGCGGGGUAGGACCCCAGCCCCU", "log2 enrichment": -1.28}
{"Sequence": "GCAGGAAGUAAAAACAAAUGGAAAUGCUUCGGAUAGUGGCAGGGGUGGGGGUUGCUAAGGAAAGGGUGGGAUGGGAGUGGGUAAAGAGUG", "log2 enrichment": 1.21}
{"data": "Sample 4", "target": "Hepatocyte nuclear factor 3-alpha (Foxa1, Mus musculus, UniProt P35582, residues 1-468, full length assumed)", "technique": "EMSA with sequencing", "molecule type": "double-stranded DNA, one strand shown", "matrix": "in vitro", "tested at": "10 and 20 nM", "notes": "whole designed probe, mean of two concentrations, ends assumed", "reference": "negative control set to 0", "reading": "higher = stronger binding", "all sequences stand within": "GTGAGCGGTGCCCATTGATGGGGAAC … TTTCACTGGGATCGTGGGGAC", "chain of UniProt P35582 (whole entry, looked up)": "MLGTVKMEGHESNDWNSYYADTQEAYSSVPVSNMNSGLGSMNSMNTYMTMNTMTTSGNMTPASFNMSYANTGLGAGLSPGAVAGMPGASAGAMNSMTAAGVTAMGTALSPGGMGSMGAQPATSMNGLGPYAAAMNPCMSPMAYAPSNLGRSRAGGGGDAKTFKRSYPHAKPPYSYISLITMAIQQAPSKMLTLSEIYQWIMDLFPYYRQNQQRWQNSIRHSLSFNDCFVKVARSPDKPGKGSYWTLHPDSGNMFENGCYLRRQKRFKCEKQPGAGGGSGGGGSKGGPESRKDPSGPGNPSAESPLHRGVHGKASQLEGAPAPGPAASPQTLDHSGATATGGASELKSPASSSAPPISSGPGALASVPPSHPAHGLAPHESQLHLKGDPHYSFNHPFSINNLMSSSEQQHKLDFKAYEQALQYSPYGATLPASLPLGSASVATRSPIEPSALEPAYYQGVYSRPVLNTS"}
{"Sequence": "CTTCTAGCCTCCAGAGCTATAGGACTATGAATTAGTATGGTTTTAAGTTACTAGGTTTGTACTAATTTGTCACAGCAGCAATAGGAAACTAAAGCAATCTCCAGACCTAAGCTTCCTCCTGCCTCAGGTGGGATAATTCAGGCATGATGTGCATGGTTTCAGTGGGTTGGAGCCTCTGCTGCCCACTGCAGTA", "normalised bound fraction [ratio]": -0.0685}
{"Sequence": "GGCAAGGTCTCAGGATGTCAAAGGCTCAAGAAATACAAAAATTAGATATGATGAATACTCTTACCAGCCTAACAGGCTTATTCTCTCCTTTAAGCAAACAATATGGGAATCAAATTATTAAAAGGCTACACAGTGGGTGATTAATCAGAATAAGGGTAGTTTTATTTGAAAATTTATAAGGTTCAACTTACTA", "normalised bound fraction [ratio]": 0.471}
{"Sequence": "TGCTGGACCCCGGGCATAGGGAGCCCTTGCTGCTTCTCCACCCACCAGTGCTGAGCTCCGGGGGAGATTGCCTTGCAGGTCCAAGGTGAGAATGTAATCTCTGCAATTCCTCTGAAAACTGGCTGGAACCTCCTCCAGGGAGGAAGGGTTGCTCATGGGCTGGCCAGGCTCCCAAACATCATACACAGCAACC", "normalised bound fraction [ratio]": -0.0553}
{"Sequence": "ATAGAAATTAAACAGATATAAAACTAGTAAACTCAGATAAAACTAGCACATATGTGAGAGCAAATTCAGCAAAACAAACCTCTGAATTTCAAAGTAAACATGTGCATGAAGATGTGGAAACAGGGTCAAACTCCACCAATGTTCTGTGAGTCACATATTTACTCTGAGATTCAGGGGTCAAGGGGGAAAGTTA", "normalised bound fraction [ratio]": 0.321}
{"Sequence": "TACTGGTTATAAGGAGAAGAGGCTAACAACTGTAGTAGTCTCAGATTGCTACAATTTTACACTATGAAATATGAGTGCCACAGATTTTCAGAGTAATCTTGGGAGAGTAATCTAAAATAATGTGAAAATAAATCTCTAGTTAGATAGGAGTATCAGGAGAAAAGGCACAAGCAAGCATGCAAAGTGGAAAAAA", "normalised bound fraction [ratio]": -0.00768}
{"note": "Repeated from above (sample 4):"}
{"Sequence": "GGCAAGGTCTCAGGATGTCAAAGGCTCAAGAAATACAAAAATTAGATATGATGAATACTCTTACCAGCCTAACAGGCTTATTCTCTCCTTTAAGCAAACAATATGGGAATCAAATTATTAAAAGGCTACACAGTGGGTGATTAATCAGAATAAGGGTAGTTTTATTTGAAAATTTATAAGGTTCAACTTACTA", "normalised bound fraction [ratio]": 0.471}
{"Sequence": "TACTGGTTATAAGGAGAAGAGGCTAACAACTGTAGTAGTCTCAGATTGCTACAATTTTACACTATGAAATATGAGTGCCACAGATTTTCAGAGTAATCTTGGGAGAGTAATCTAAAATAATGTGAAAATAAATCTCTAGTTAGATAGGAGTATCAGGAGAAAAGGCACAAGCAAGCATGCAAAGTGGAAAAAA", "normalised bound fraction [ratio]": -0.00768}
{"Sequence": "TGCTGGACCCCGGGCATAGGGAGCCCTTGCTGCTTCTCCACCCACCAGTGCTGAGCTCCGGGGGAGATTGCCTTGCAGGTCCAAGGTGAGAATGTAATCTCTGCAATTCCTCTGAAAACTGGCTGGAACCTCCTCCAGGGAGGAAGGGTTGCTCATGGGCTGGCCAGGCTCCCAAACATCATACACAGCAACC", "normalised bound fraction [ratio]": -0.0553}
{"Sequence": "ATAGAAATTAAACAGATATAAAACTAGTAAACTCAGATAAAACTAGCACATATGTGAGAGCAAATTCAGCAAAACAAACCTCTGAATTTCAAAGTAAACATGTGCATGAAGATGTGGAAACAGGGTCAAACTCCACCAATGTTCTGTGAGTCACATATTTACTCTGAGATTCAGGGGTCAAGGGGGAAAGTTA", "normalised bound fraction [ratio]": 0.321}
{"Sequence": "CTTCTAGCCTCCAGAGCTATAGGACTATGAATTAGTATGGTTTTAAGTTACTAGGTTTGTACTAATTTGTCACAGCAGCAATAGGAAACTAAAGCAATCTCCAGACCTAAGCTTCCTCCTGCCTCAGGTGGGATAATTCAGGCATGATGTGCATGGTTTCAGTGGGTTGGAGCCTCTGCTGCCCACTGCAGTA", "normalised bound fraction [ratio]": -0.0685}
